Experimental data pooled from the literature.
Values joined by “and” are separate records of one study, mostly repeats; a detail may differ. Numbers after ± are the reported error.
Target: Casein kinase I isoform alpha (CSNK1A1, Homo sapiens, UniProt P48729)
Sequence of UniProt P48729 (whole entry, looked up): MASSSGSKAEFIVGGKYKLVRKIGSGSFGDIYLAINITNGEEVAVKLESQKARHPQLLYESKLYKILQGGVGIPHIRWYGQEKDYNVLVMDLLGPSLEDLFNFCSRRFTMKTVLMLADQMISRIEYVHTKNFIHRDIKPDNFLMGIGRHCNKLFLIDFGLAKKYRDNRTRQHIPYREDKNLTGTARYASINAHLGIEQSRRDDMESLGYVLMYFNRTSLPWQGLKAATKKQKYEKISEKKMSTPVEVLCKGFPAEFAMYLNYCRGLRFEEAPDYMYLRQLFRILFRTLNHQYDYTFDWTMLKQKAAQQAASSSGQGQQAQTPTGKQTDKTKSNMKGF

Compound = c1ccc(-c2[nH]ccc2-c2ccnc3ccccc23)nc1; test = enzyme activity, ADP-Glo; how to read = relative to: IC50 over Yck2 IC50; quantity = selectivity ratio; value = > 6
Compound = C=CC(=O)N1CCC[C@@H](n2nc(-c3ccc(Oc4ccccc4)cc3)c3c(N)ncnc32)C1; test = kinase activity, inhibitor, HotSpot radiometric; setting = 100 nM, added: ATP 10 µM; quantity = remaining activity; value = 78.8 ± 2.6%
Compound = c1ccc(-c2n[nH]cc2-c2ccncn2)nc1; test = enzyme activity, ADP-Glo; how to read = relative to: IC50 over Yck2 IC50; quantity = selectivity ratio; value = > 20
Compound = Fc1ccc(-c2nc3cc(F)ccn3c2-c2ccncc2)cc1; test = kinase activity, inhibitor, ADP-Glo; setting = 0.273 µM, 0.5 h; quantity = remaining activity; value = 46.7% and 20.2%
Compound = COc1ccc(F)cc1C(=O)NCc1ccc(-c2nn([C@@H](C)C(F)(F)F)c(N)c2C(N)=O)cc1; test = kinase activity, inhibitor, HotSpot radiometric; setting = 100 nM, added: ATP 10 µM; quantity = remaining activity; value = 69.2 ± 2.7%
Compound = Fc1ccc(-c2nn3cc(F)ccc3c2-c2ccncc2)cc1; test = kinase activity, inhibitor, ADP-Glo; setting = 0.8751 µM, 0.5 h; quantity = remaining activity; value = 22% and 45.3%
Compound = c1ccc(Cn2cc(-c3ccnc4ccccc34)c(-c3ccccn3)n2)cc1; test = enzyme activity, ADP-Glo; how to read = relative to: IC50 over Yck2 IC50; quantity = selectivity ratio; value = 6
Compound = COc1cc(-c2cncc3c2CN(C)Cc2cc(N4CCNCC4)ccc2-3)cc(OC)c1OC; test = kinase activity; setting = 1 µM, human enzyme, added: ATP 10 µM; how to read = relative to: DMSO control; quantity = remaining activity; value = 95%
Compound = CC[C@@H]1[C@H](F)C(=O)N[C@@H]1COc1nccc2cc(C(N)=O)c(OC)cc12; test = ATP probe binding, KiNativ profiling, refers to: Lys2 probe site; test system = THP-1 cell lysate; setting = 0.01 mM; quantity = inhibition; value = 2.1%
